Assay results of several laboratories.
Each line is one published result; not all experiments were run side by side. Values joined by “and” are separate records of one study, mostly repeats; a detail may differ. ± gives the spread as reported.
Sequence of UniProt Q13418 (whole entry, looked up): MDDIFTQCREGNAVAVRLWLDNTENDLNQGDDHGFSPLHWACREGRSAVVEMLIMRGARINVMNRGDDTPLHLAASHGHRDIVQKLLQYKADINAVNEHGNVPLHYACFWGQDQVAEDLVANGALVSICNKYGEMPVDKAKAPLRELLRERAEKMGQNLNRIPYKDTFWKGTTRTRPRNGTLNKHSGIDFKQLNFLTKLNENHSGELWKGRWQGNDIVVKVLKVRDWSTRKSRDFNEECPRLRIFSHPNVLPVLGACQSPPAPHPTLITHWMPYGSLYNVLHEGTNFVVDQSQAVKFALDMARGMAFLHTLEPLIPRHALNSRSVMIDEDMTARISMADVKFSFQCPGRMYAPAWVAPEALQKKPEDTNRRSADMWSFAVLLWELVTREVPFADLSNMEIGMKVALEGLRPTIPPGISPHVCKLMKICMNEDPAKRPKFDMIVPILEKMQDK
Sequence of UniProt P53779 (whole entry, looked up): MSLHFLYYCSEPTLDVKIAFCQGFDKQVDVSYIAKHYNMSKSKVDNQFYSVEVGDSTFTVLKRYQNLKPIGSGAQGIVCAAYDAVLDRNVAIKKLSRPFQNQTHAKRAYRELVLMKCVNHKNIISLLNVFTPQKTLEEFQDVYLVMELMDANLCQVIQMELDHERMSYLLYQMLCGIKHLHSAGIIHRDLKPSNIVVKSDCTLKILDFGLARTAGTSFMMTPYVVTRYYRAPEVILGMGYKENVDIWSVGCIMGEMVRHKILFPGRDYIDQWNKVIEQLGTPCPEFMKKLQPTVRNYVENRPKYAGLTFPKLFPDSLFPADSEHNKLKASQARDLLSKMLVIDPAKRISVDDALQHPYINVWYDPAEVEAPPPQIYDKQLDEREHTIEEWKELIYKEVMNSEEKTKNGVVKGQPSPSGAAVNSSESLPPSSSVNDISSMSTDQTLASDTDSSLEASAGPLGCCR

For `CC(C)C[C@@H](NC(=O)[C@@H](CCCNC(=N)N)NC(=O)[C@@H](Cc1c[nH]cn1)NC(=O)[C@@H](Cc1c[nH]c2ccccc12)NC(=O)[C@@H](Cc1c[nH]cn1)NC(=O)[C@@H](Cc1ccccc1)NC(=O)[C@H](NC(=O)[C@@H](Cc1ccc(O)cc1)NC(=O)CNC(=O)CNC(=O)CCOCCOCCOCCNC(=O)CN1CCN(CC(=O)O)CCN(CC(=O)O)CC1)[C@H](C)O)C(=O)N[C@H](CC(N)=O)C(=O)N1CCC[C@@H]1C(=O)O` [gallium-68 labelled], the tissue ratio was 2.54 ± 0.65 (C57BL/6 mice, male; intravenous, 1.85 MBq, 30 min; reference: tumour over muscle).
The C0 of `CCCCCCCCCCCCCC(=O)N[C@H](CCN)C(=O)N[C@@H]1C(=O)N[C@@H](CCN)C(=O)N[C@@H](CC(C)C)C(=O)N[C@@H](CCN)C(=O)N[C@H](Cc2ccccc2)C(=O)N[C@@H](CC(C)C)C(=O)N[C@@H](CCN)C(=O)N[C@H](CCN)C(=O)N[C@@H](C(C)C)C(=O)N[C@@H](CC(=O)O)C(=O)O[C@@H]1C` is reported as 28100 ng/mL (rat, plasma; intravenous, 5 mg/kg).
`CN(C)[C@H]1C[C@@]23CC[C@@]4(O2)C(=CC[C@]2(C)[C@@H](c5ccc6ccncc6c5)CC[C@H]24)C=C3[C@@H](O)[C@@H]1O` gave an inhibition of 3.5% (ILK (Homo sapiens, UniProt Q13418); probe labelling, inhibitor, KiNativ ATP probe MS; native lysate; 1 µM).
With `CC[C@H](C)[C@H](NC(=O)[C@H](CCCCN)NC(=O)CNC(=O)[C@H](CC(C)C)NC(=O)[C@H](Cc1ccccc1)NC(=O)[C@H](CCCCN)NC(=O)[C@H](CO)NC(=O)[C@H](Cc1ccccc1)NC(=O)[C@H](Cc1c[nH]c2ccccc12)NC(=O)[C@H](CCC(N)=O)NC(=O)[C@@H](NC(=O)[C@H](Cc1ccccc1)NC(=O)CCCCCNC(=O)CN1CCN(CC(=O)O)CCN(CC(=O)O)CCN(CC(=O)O)CC1)C(C)C)C(=O)N[C@@H](CCC(=O)O)C(=O)N1CCC[C@H]1C(=O)N[C@@H](CC(=O)O)C(=O)N[C@H](C(=O)N[C@@H](CO)C(=O)N[C@@H](CCC(N)=O)C(=O)N[C@H](C(=O)N[C@@H](CCC(N)=O)C(=O)N[C@@H](CC(=O)O)C(=O)N1CCC[C@H]1C(=O)N[C@@H](CC(N)=O)C(=O)N[C@@H](CC(=O)O)C(=O)N[C@@H](CCC(N)=O)C(=O)N[C@@H](Cc1ccc(O)cc1)C(=O)N[C@@H](CCC(=O)O)C(=O)N1CCC[C@H]1C(=O)N[C@@H](Cc1ccccc1)C(=O)O)C(C)C)C(C)C` [copper-64 labelled] the SUVmean was 1.17 SUV (dynamic PET; mouse, CT26 tumour, untreated, tumour; intravenous, 100 µCi/mouse, 1170 s).
For `C=C/C=C/C[C@@H](C)[C@@H](O)[C@H]1C(=O)N[C@@H](CC)C(=O)N(C)CC(=O)N(C)[C@@H](CC(C)C)C(=O)N[C@@H](C(C)C)C(=O)N(C)[C@@H](CC(C)C)C(=O)N[C@@H](C)C(=O)N[C@H](C)C(=O)N(C)[C@@H](CC(C)C)C(=O)N(C)[C@@H](CC(C)C)C(=O)N(C)[C@@H](C(C)C)C(=O)N1C`, “plasma total Ca2+” read 2.61 ± 0.06 mmol/L (Wistar Kyoto rat, male, plasma; ip, 0.5 mg/kg/day, day 18).
`CC(C)[C@@H]1NC(=O)CNC(=O)[C@H](CC(N)=O)NC(=O)[C@H](CCCNC(=N)N)NC(=O)[C@H](Cc2ccc(O)cc2)NC(=O)[C@H](C(C)C)NC(=O)[C@@H](NC(=O)[C@@H](NC(=O)[C@H](CC(N)=O)NC(=O)[C@H](Cc2c[nH]c3ccccc23)NC(=O)[C@H](C)NC(=O)[C@H](Cc2ccccc2)NC(=O)CNC(=O)[C@H](CCCCN)NC(=O)[C@H](Cc2ccccc2)NC(=O)[C@H](Cc2ccccc2)NC(=O)[C@H](CCCCN)NC(=O)OCC2c3ccccc3-c3ccccc32)C(C)C)CSSC[C@@H](C(=O)N[C@@H](Cc2c[nH]cn2)C(=O)N[C@@H](CCCNC(=N)N)C(=O)N[C@@H](CCCNC(=N)N)C(=O)N[C@@H](C)C(=O)N[C@@H](CC(N)=O)C(N)=O)NC(=O)[C@H](C(C)C)NC(=O)[C@H](CCCNC(=N)N)NC1=O`: “platelet distribution width” 16 ± 0.31% (ICR mice, blood; intraperitoneal, 5 mg/kg, day 5).
`CC(C)(C)C(=O)OCOP(=O)(OCOC(=O)C(C)(C)C)C1CCCN(O)C1=O` (stereo not shown) has a TGI of 5.59 µM (HCC 2998).
For `CC(C)C[C@H](NC(=O)[C@H](Cc1ccccc1)NC(=O)CNC(=O)CNC(=O)[C@@H](N)Cc1ccc(O)cc1)C(=O)N[C@@H](CSCB(O)O)C(N)=O`, “peptide remaining intact” read about 96% (RP-HPLC; PBS; 100 µM, 24 h, pH 7.4, 25 °C).
`CN1Cc2cc(Cl)ccc2-n2c(nnc2C2CCN(c3cccc([18F])n3)CC2)C1` has a tissue uptake of 7.05 ± 3.48 %ID/g (C57BL/6 mouse male, adrenal gland; intravenous, 3.7 MBq, 60 min).
`O=C1NC2(CC2)COc2ncc(F)cc2[C@H]2COCCN2c2ccn3ncc1c3n2` — result for “organ-to-brain weight ratio”: 53.6 ± 2.19% (Sprague-Dawley rat, female, heart; oral, 5 mg/kg/day, 4 weeks dosing, end of recovery).
`Cc1nc2cccc(OCC(C)(C)C(=O)NC(C)C)c2c(N)c1C(=O)[O-].[Na+]` has a revertant colonies of 39 ± 7 colonies/plate (Salmonella typhimurium; Ames plate incorporation; TA98; 0.80 mg/plate, with: with rat liver S9).
With `CCn1ccc(-c2cc([C@@H](C)NC(=O)c3cc(OC[C@@H]4CCN4C)ccc3C)c3ccccc3n2)n1` the viability was 0.299% and 0.597% (Vero E6; 250 µM).
`N=C(N)NCCC[C@H](NC(=O)[C@H](CCCNC(=N)N)NC(=O)[C@H](CCCNC(=N)N)NC(=O)[C@H](CCC(N)=O)NC(=O)[C@H](CCCNC(=N)N)NC(=O)[C@H](CCCNC(=N)N)NC(=O)[C@H](CCCCN)NC(=O)[C@H](CCCCN)NC(=O)[C@H](CCCNC(=N)N)NC(=O)CNC(=O)[C@H](Cc1ccc(O)cc1)NC(=O)[C@H](Cc1ccccc1)NC(=O)[C@H](Cc1ccccc1)NC(=O)[C@H](Cc1ccccc1)NC(=O)Cc1ccc2ccccc2c1)C(=O)O` gave a health score of 5 (C57BL/6 mice; intraperitoneal, 10 mg/kg, 24 h; direction not given).
Under “time to fall”, `CCN(Cc1ccccc1)C(=O)CCc1nc(CN2CCN(C(=O)Cc3ccc(OC)c(OC)c3)CC2)no1` is recorded as 1.7 ± 0.22 min (rotarod test; mouse, CCI neuropathic pain model; 20 mg/kg).
`Cc1ccc(OC[C@@H]2CCCN2C)cc1C(=O)N[C@H](C)c1cc(-c2cnn(C)c2)nc2ccccc12` gave a viability of 4.9% (African green monkey cells; 125 µM).
Under “CSF to plasma ratio”, `Cc1n[nH]c(C)c1CCCOc1cc(OCCCCCCNCCOCCOCCn2cc(CNc3ccc(C(=O)O)cc3)nn2)cc(C(=O)O)c1` is recorded as 1.2 and 1.5 (male Sprague Dawley rat, CSF and plasma; subcutaneous, 15 µmol/kg, 30 min).
`CC[C@H](C)[C@H](NC(=O)[C@H](Cc1ccc(O)cc1)NC(=O)[C@@H](NC(=O)[C@H](CCCNC(=N)N)NC(=O)[C@@H](N)CC(=O)O)C(C)C)C(=O)N[C@@H](Cc1c[nH]cn1)C(=O)N1CCC[C@H]1C(=O)O`: “elimination rate constant” 0.03 min⁻¹ (Beagle dogs, plasma; subcutaneous, 10 mg/kg/day, day 0, median).
`CC(C)[C@H]1NC(=O)C[C@H]2/C=C/CCSSC[C@@H](NC1=O)C(=O)N[C@H](Cc1cccc3ccccc13)C(=O)NCC(=O)O2` gave an inhibition of 0.8% (MAPK10 (Homo sapiens, UniProt P53779); enzyme activity, inhibitor; 10 µM).
`Cc1ccccc1-c1ccc(-c2nc(-c3ccc(CN(C)CCCC(=O)O)c([18F])c3)no2)cc1C(F)(F)F` gave a tracer uptake of 0.36 %ID/g (rat, spleen; 2 h).

A few entries again:
`CC[C@H](C)[C@H](NC(=O)[C@H](Cc1ccc(O)cc1)NC(=O)[C@@H](NC(=O)[C@H](CCCNC(=N)N)NC(=O)[C@@H](N)CC(=O)O)C(C)C)C(=O)N[C@@H](Cc1c[nH]cn1)C(=O)N1CCC[C@H]1C(=O)O`: “elimination rate constant” 0.03 min⁻¹ (Beagle dogs, plasma; subcutaneous, 10 mg/kg/day, day 0, median).
With `CCn1ccc(-c2cc([C@@H](C)NC(=O)c3cc(OC[C@@H]4CCN4C)ccc3C)c3ccccc3n2)n1` the viability was 0.299% and 0.597% (Vero E6; 250 µM).
